Published values of several laboratories.
A part holds a random share of what one study measured.

Block 1 — method: protein binding microarray; form: double-stranded DNA, one strand shown; matrix: in vitro; tested at: not given; relative to: not given; direction: higher = stronger binding
Target: Histone acetyltransferase KAT6A, winged helix 1, GST fusion (KAT6A, Homo sapiens, UniProt Q92794, residues 1-85)
Notes: 8-mer, flanks averaged, mean of 2 arrays, mostly near background
Target sequence (chain): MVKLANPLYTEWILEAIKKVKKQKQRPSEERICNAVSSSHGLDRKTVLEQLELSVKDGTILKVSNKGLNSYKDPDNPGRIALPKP
Sequence | E-score
CCGTGGCA | 0.157
ACGGCACC | 0.307
CTTCAAGA | -0.19
CATAGTGA | -0.197
AAGCGGTC | 0.247
GACCGGGA | 0.265
GAGGGGCA | -0.0426
ACGCGCGG | 0.47
CTGAAGAA | -0.00359
CCATTCCC | -0.058
CATAGAAG | -0.186
AGAGATCC | -0.193
ACAGCGGC | 0.305
TCGGTACA | 0.0967
CCAAACTC | -0.108
AGCTCCGG | -0.0813
GCAACAAA | -0.23
CGAAAAGC | 0.0409
AGGGCATG | -0.158
ATAGGAAA | -0.0398
ACTCTGCT | -0.303
ATTGTACC | -0.0183

Block 2 — method: universal PBM; form: double-stranded DNA, one strand shown; matrix: in vitro; tested at: not given; direction: higher = stronger binding
Target: Sal-like protein 4, full length isoform B (SALL4, Homo sapiens, UniProt Q9UJQ4-2, residues 1-616)
Notes: 8-mer, flanks averaged, mean of replicates
Sequence | E-score
CTCAGTAC | -0.0944
ACCACGGA | -0.331
GGACACGA | -0.0251
CACGTTCA | 0.00447
CGCGCGGC | -0.323
GGTTAGGA | -0.112
GATACCAA | 0.151
CGTGAAGA | -0.0287
ATCTATGG | -0.133
GCAAAAGA | -0.0183
CCCAACAC | -0.109
GATCAGAC | -0.0478
AACTTATA | 0.362
GAAATCTA | 0.209
ATGGTCCC | -0.165
GTAATAAA | 0.397
GGCGTTAC | -0.132
AGGAACCT | 0.104

Block 3 — method: RNA Bind-n-Seq; form: RNA; matrix: in vitro; tested at: not given; relative to: input RNA pool; direction: higher = stronger binding
Target: RING finger protein unkempt homolog, zinc fingers 1-6, GST-SBP tag (UNK, Homo sapiens, UniProt Q9C0B0, residues 30-357)
Notes: RNA with constant flanks, human and mouse sites, ends assumed
Constant ends, left off below: GGGAGUUCUACAGUCCGACGAUC … CAACAGAGGAUUGAGCAUCA
Target sequence (chain): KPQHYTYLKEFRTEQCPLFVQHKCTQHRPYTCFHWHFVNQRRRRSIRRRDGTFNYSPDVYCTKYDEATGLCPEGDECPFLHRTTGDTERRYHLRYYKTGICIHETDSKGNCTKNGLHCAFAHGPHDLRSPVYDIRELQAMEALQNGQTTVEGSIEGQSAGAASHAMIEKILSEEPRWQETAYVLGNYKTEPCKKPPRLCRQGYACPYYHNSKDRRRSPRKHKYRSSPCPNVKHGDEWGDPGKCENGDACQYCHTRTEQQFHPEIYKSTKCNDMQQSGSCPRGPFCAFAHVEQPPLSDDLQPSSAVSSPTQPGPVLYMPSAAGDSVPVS
Sequence | bound/input enrichment [ratio]
UCUUCUGAAAAGGAGGCAGCUCCAGACGCUGGUGCUGAGCCCAUCACUGCAGACAGUGACCCCGCUUAUAGUUCGAAGGUACUGCUGCUCUCUUCCCCGGGGUUGGAGGAAUUGUAUCGU | 0.182
GGUACUUUUAUAAACAUUAGUGUAUUUAUUUCCUAUGUGUUAAUAUGAAGAUCAGAAAUUAUUUUUUGCACUUUGGCAUAAAUACUUUUCAAUAUCUGAUUUGUUCUCUGGAUAAAUUAG | 8
UGAAGUGGUUUUUGUGGGUGUGAAACAAAUGGUGAGAAUUUGAAUUGGUCCCUCCUAUUAUAGUAUUGAAAUUAAGUCUACUUAAUUUAUCAAGUCAUGUUCAUGCCCUGAUUUUAUAUA | 3.1
UUUUUGACUUUGUAUUGCUGCCAAACCUGUAACUGUUGAAUUUCAGGAGUGGGGUGGAAAAGGAAACGUGUUUCUUCACUAAGUGAGCAUGUUCCAGGGGUGCAUCCCAGCUGCCCAGGC | 0.231
CUGGGUUUGCCAGCUGUUCCUGCGGUGACACUGUAUAAACACGAUGACCCUGCCUUGACUUUAGUUGCUGGUCUUACAUCAAAUAAGCCCACAGACAAACUCCGUGCCCUGCCUCUGUGG | 0.0875
AUUAAGAAACAAAUCAUAUUGUGUAUGGAAGAAUUAGAACACUCUCCAGAUACAAGCUUUGAAAGAGAUGUGGUGUGUGAAGAUGAAAGUGCUUUUUGUUUAUCACUGGAGAACAUUGCA | 0.24

Block 4 — method: protein-binding microarray; form: double-stranded DNA, one strand shown; matrix: in vitro; tested at: 250 nM; notes: 60-bp whole probe; added: salmon DNA 0.4 mg/ml; relative to: random background probes; direction: higher = stronger binding; constant ends, left off below: GCCTAGCAC … GTCTTGATTCGCTTGACGCTGCTG
Target: Interferon regulatory factor 7, full length, phosphomimetic (IRF7, Homo sapiens, UniProt Q92985, residues 1-503, S101K/S471D/S472D/S475D/S476D/S477D/S483D/S484D/S487D)
Sequence of UniProt Q92985 (whole entry, unmodified, looked up): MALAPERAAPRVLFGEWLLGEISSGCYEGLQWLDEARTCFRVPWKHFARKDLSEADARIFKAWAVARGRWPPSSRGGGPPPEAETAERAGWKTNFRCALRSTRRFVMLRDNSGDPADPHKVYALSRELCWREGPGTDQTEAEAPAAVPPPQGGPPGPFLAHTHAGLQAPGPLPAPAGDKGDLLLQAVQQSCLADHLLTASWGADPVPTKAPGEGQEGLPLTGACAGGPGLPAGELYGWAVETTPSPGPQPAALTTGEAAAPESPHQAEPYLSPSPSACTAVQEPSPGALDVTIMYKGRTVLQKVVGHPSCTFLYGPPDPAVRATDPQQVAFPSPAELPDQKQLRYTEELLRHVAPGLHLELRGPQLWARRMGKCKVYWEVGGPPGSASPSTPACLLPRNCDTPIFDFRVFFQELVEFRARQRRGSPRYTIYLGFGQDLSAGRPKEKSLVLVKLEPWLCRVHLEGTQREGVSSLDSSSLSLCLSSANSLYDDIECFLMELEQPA
Sequence | log fluorescence
AGACATGACACCACTCCTGAGTGCTAG | -0.391 z-score
TCAATTTTGGTTTTCCTACTGTGCTAG | 1.08 z-score
TTAGATTTCGGGACGGGATTAGTGCTA | 0.228 z-score
GACGGTATCGGTTTCGGGAGGTGCTAG | 6.07 z-score
TTAGCTCTCGGTCTCGGTTAGTGCTAG | 1.25 z-score
GACGAACGGAGTCTCGAGACGTGCTAG | 0.176 z-score
GACGATTTCGGGACTGGAGGCGTGCTA | 0.122 z-score
TGGGGTTCACTCCGGTACCCGTGCTAG | -0.406 z-score
TCATTTTTTTTATTTATACTGTGCTAG | 1.31 z-score
GACGGTGTCGGGACTGGGGACGTGCTA | -0.66 z-score
GACGGTTTCGGGTTTCCGGACGTGCTA | 11.7 z-score
GACGAACTGAGTCTAGAGACGTGCTAG | -0.294 z-score
TCAGATTTCGGGTTTCGATTAGTGCTA | 7.97 z-score
TTAGGCATCGGTATCGGTTAGTGCTAG | 1.12 z-score
TTAGATTTCGGGTACCGATTAGTGCTA | 0.903 z-score
TTAGGACTGGATATCGGTTAGTGCTAG | -0.19 z-score
GACGGTTTCCTGTTCCTGACGTGCTAG | 3.06 z-score
TCACATCTGATTTCTCAAACTGTGCTA | 0.606 z-score
ATAGGTATCCTACTGCTTTAGTGCTAG | 0.0213 z-score

Some of these lines once more (block 1):
Sequence | E-score
CATAGTGA | -0.197
AAGCGGTC | 0.247
GACCGGGA | 0.265
GAGGGGCA | -0.0426
ACGCGCGG | 0.47
